Experimental data pooled from the literature.
Parts stem from different laboratories: compare values within a part only. Changes are numbered by the printed parent chain.

Study 1 — technique: competition protein-binding microarray; form: double-stranded DNA, one strand shown; matrix: in vitro; tested at: 2 µM; added: Cbf1 competitor, 0.05 µM; direction: higher = stronger binding
Target: Phosphate system positive regulatory protein PHO4, full length, GST-tagged (PHO4, Saccharomyces cerevisiae, UniProt P07270, residues 1-312)
Setting: whole 60-bp probe, lowest competitor level
Residues (chain): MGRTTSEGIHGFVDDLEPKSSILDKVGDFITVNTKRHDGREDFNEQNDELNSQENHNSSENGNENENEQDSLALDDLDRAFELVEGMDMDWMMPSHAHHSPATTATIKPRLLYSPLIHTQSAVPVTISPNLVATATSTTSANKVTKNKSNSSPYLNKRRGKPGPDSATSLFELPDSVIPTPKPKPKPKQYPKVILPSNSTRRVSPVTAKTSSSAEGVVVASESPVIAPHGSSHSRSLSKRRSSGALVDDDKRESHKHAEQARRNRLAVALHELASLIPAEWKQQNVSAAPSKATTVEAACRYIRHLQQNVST
Sequence | fluorescence intensity [a.u.]
AATGTGGGAATGTCGCACACGCTAATGTGGAATTGGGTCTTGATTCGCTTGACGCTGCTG | 8790
CACTATGAGGATCAACACGTGAAGAGAGCCTTGAAGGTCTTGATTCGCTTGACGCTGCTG | 15200
ACAAATGGTAACTGGCACGTTAATTGGTTTAACATTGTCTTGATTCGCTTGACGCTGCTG | 8710
CCAGTTTTGGACTGTCACACTGCTCCCATTGCTTGTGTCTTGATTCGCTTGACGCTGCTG | 4080
ACTTCATTCGGTGCTTCCGTGACGGGTTCAACGGCTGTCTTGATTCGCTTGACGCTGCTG | 4810
GTCTTGTCTCATTGGAATGTGGGTGTCCCCACTTCAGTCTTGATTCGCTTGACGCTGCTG | 6390
GTCTATCTTGACCAGCGCGTGGTCGGCCGCCAATGCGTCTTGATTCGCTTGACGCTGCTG | 9420
ACTCGCATGTTACCGTCCGTGACGGACTCCTTTGTGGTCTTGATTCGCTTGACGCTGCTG | 5690
CGGGAACGCAAATGCATCGTGGTGAAATGATAAATCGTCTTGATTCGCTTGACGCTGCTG | 9040
ATCAAATGAGACTAGCACATGGGGCTCTCGTTAGCCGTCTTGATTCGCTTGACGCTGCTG | 12300
AGAGCGTCGTTTGCTTACGTGATGGTTAAGTGCCTTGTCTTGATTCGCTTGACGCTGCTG | 3780
GACCTCGTTATGGACAACGTGGTCGCTAGGGGTGGTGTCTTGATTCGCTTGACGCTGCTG | 13100
CGTTCAAAGCCTTTTCACGTTGAGCATCAGCCTTAGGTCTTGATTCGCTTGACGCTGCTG | 6500
TCATGTTAATTGTAACGGCTATATCTACTGGGTAGAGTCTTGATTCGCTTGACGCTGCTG | 3060
TTACAATAATAAAAGCACGTGACAAAGTCCCTAGATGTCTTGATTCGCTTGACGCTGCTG | 15800
AAATTACTAAGTTTTCACGTGTAATACCCCGTATGAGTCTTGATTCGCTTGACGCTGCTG | 12200
GGCATATTCTCTTGTAGTGTGACGGAAGGTGCGGGTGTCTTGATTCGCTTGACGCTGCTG | 4920

Study 2 — technique: aptamer microarray, sandwich; form: DNA with 2'F-ANA; matrix: in vitro; tested at: 200 nM; added: Cy3 exosite-II aptamer, 400 nM; direction: higher = stronger binding; sequence: GGTTGGTGTGGTTGG
Target: Prothrombin, mature alpha-thrombin (F2, Homo sapiens, UniProt P00734)
Setting: whole 15-mer aptamer, many near background
Modification | mean fluorescence intensity
2'F-ANA at 1 3 4 8 12 13 | 312 a.u.
2'F-ANA at 1 2 3 4 6 7 8 11 12 13 15 | 211 a.u.
2'F-ANA at 2 3 4 9 13 14 | 251 a.u.
2'F-ANA at 1 3 4 9 10 11 12 14 15 | 52.2 a.u.
2'F-ANA at 2 3 4 5 6 7 8 9 13 | 63 a.u.
2'F-ANA at 1 4 8 9 10 11 12 13 14 15 | 50.9 a.u.
2'F-ANA at 2 4 7 9 12 13 14 15 | 113 a.u.
2'F-ANA at 3 9 11 12 13 14 | 700 a.u.
2'F-ANA at 3 4 5 9 11 14 | 48.9 a.u.
2'F-ANA at 1 2 5 8 13 14 15 | 47.1 a.u.
2'F-ANA at 1 2 6 7 9 11 12 14 15 | 71.6 a.u.
2'F-ANA at 2 3 4 5 7 8 9 13 15 | 61.3 a.u.
2'F-ANA at 2 3 4 5 6 7 9 10 11 13 15 | 52.1 a.u.
2'F-ANA at 2 4 8 11 | 313 a.u.
2'F-ANA at 3 4 7 9 11 12 15 | 751 a.u.
2'F-ANA at 1 2 3 4 5 6 7 9 10 11 | 56.3 a.u.
2'F-ANA at 1 3 4 7 8 11 13 15 | 167 a.u.
2'F-ANA at 2 5 6 8 9 10 15 | 52 a.u.
2'F-ANA at 1 3 4 5 6 11 13 | 49.9 a.u.
2'F-ANA at 1 2 4 6 7 13 14 | 48.3 a.u.
2'F-ANA at 1 5 9 10 11 12 13 15 | 47.9 a.u.
2'F-ANA at 2 3 4 5 8 10 11 12 15 | 57.8 a.u.
2'F-ANA at 1 4 5 7 8 9 | 66.7 a.u.
2'F-ANA at 3 4 8 9 10 11 13 14 | 287 a.u.

Study 3 — target: CCNE2, cyclin fold, Cln2 fusion (human); technique: yeast growth competition, sequencing; matrix: yeast; setting: strong parent motif; reference: not given; direction: higher = stronger binding
Starting sequence: SCAPER docking peptide (human); SNARRSLNFGGST
Variant | normalised enrichment score
PNARRSLNFGGST [S1P] | 0.995
SNARRSDNFGGST [L7D] | 0.642
SNARRSLNRGGST [F9R] | 0.858
SNARRSLNFQGST [G10Q] | 0.622
SNFRRSLNFGGST [A3F] | 1.61
SNARRSLNFTGST [G10T] | 1.21
SNARRSLNFSGST [G10S] | 0.55
SAARRSLNFGGST [N2A] | 1.53
SNARRSLNFWGST [G10W] | 1.44
SPARRSLNFGGST [N2P] | 1.43
YNARRSLNFGGST [S1Y] | 1.05
KNARRSLNFGGST [S1K] | 0.983
SNDRRSLNFGGST [A3D] | -0.127
SNARRSHNFGGST [L7H] | 0.409
SNARRSLNFGGSP [T13P] | 1.24
SNARRSLNFGGSK [T13K] | 1.49

Further values, each from its own experiment
Molecule | target | test | test system | conditions | scale | quantity | result
PhoQ, residues 284 288 289 292 302 303 NSMLDC | PhoP, residues 12 14 15 18 19 LYFRQ (Escherichia coli, UniProt P23836) | Sort-seq, item: YFP reporter | E. coli | PhoQ-PhoP variant library, added: 10 µM Mg2+ | reference: high Mg2+ state, higher = stronger signaling | fold induction | 14.7

For quick reference, copied from above (study 1):
Sequence | fluorescence intensity [a.u.]
GTCTTGTCTCATTGGAATGTGGGTGTCCCCACTTCAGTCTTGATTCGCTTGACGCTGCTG | 6390
GTCTATCTTGACCAGCGCGTGGTCGGCCGCCAATGCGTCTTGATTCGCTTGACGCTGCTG | 9420
ACTCGCATGTTACCGTCCGTGACGGACTCCTTTGTGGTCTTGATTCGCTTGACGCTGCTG | 5690
CGGGAACGCAAATGCATCGTGGTGAAATGATAAATCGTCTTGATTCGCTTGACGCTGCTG | 9040
ATCAAATGAGACTAGCACATGGGGCTCTCGTTAGCCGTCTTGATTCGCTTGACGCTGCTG | 12300
AGAGCGTCGTTTGCTTACGTGATGGTTAAGTGCCTTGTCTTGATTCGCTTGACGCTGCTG | 3780
GACCTCGTTATGGACAACGTGGTCGCTAGGGGTGGTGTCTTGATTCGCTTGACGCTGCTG | 13100
CGTTCAAAGCCTTTTCACGTTGAGCATCAGCCTTAGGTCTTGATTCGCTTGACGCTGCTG | 6500
